Literature values as cited in several papers.
Protocols differ between the studies behind these lines.
Chain of UniProt Q8IU85 (whole entry, looked up): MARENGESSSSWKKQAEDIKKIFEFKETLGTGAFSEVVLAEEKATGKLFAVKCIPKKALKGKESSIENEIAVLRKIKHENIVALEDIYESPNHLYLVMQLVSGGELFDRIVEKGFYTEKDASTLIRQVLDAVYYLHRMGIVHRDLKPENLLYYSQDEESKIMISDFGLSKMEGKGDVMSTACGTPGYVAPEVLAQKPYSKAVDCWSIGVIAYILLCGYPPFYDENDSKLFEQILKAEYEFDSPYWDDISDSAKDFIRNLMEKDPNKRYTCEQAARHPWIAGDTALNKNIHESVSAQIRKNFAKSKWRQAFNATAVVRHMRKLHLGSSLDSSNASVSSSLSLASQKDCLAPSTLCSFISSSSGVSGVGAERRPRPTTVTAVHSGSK

CC(=O)N[C@@H]1CCC[C@H](C(=O)Nc2cc(-c3cnn4c3CC(C)(C)C4)c(Cl)cn2)C1 — half-life (mouse): 0.18 h
Nc1cc(C(F)(F)F)c(-c2nc(N3CCOCC3)nc(N3CCOCC3)n2)cn1 — remaining activity (CAMK1D (Homo sapiens, UniProt Q8IU85); enzyme activity; 10 µM; baseline: untreated): 83%
CCN1CCN(C(=O)c2ccc(-n3nc(-c4cccnc4)c4c3-c3sc(NC(C)=O)nc3CC4)cc2)CC1 — half-life (mouse; intravenous): 0.25 h
O=c1[nH]c2nonc2cc1Nc1c(F)c(F)c(F)c(F)c1F — half-life (mouse): 4.4 h
COc1ccc(N2CCN(Cc3cn4c(-c5ccc(Br)cc5)nnc4s3)CC2)cc1 — half-life (mouse): ~8 h
CC(C)(c1ccc(O)cc1)c1ccc(O)cc1 — half-life (mouse; 100 mg/kg): 4.9 h
COc1ccc(CNc2nc(-c3ccc(C(=O)O)cc3)nc3sc4ccccc4c23)cc1Cl — half-life (mouse; intravenous): 0.7 h
Cc1ccc(NC(=O)c2ccc(CN3CCN(C)CC3)cc2)cc1Nc1nccc(-c2cncc(-c3oncc3C)c2)n1 — half-life (mouse; 50 mg/kg/day, steady state): 3.1 h
C[C@@H]1COCCN1c1cc(C2([S@](C)(=N)=O)CC2)nc(-c2cc[nH]c3nccc2-3)n1 — half-life (mouse cancer model): ≤ 2.17 h

For quick reference, copied from above:
C[C@@H]1COCCN1c1cc(C2([S@](C)(=N)=O)CC2)nc(-c2cc[nH]c3nccc2-3)n1 — half-life (mouse cancer model): ≤ 2.17 h
